Results of several laboratories.
± gives the spread as reported. ≈ marks a conversion by molar mass, not a printed value.
lecA: PA-I galactophilic lectin (lecA, Pseudomonas aeruginosa, UniProt Q05097)
APP amyloid-beta 1-40 oligomers: Amyloid-beta precursor protein, amyloid-beta 1-40 oligomers (APP, Homo sapiens, UniProt P05067)
KLRK1 with MICA: NKG2-D type II integral membrane protein, with MICA (KLRK1, Homo sapiens, UniProt P26718)
UniProt P26718, sequence (whole entry, looked up): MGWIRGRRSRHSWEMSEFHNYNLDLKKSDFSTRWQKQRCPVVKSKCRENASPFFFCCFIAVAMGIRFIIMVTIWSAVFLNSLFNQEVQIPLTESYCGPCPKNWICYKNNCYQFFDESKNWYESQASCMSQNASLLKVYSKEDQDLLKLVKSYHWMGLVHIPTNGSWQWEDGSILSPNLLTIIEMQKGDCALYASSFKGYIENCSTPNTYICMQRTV
lasR: Transcriptional activator protein LasR (lasR, Pseudomonas aeruginosa, UniProt P25084)
UniProt O00411, sequence (whole entry, looked up): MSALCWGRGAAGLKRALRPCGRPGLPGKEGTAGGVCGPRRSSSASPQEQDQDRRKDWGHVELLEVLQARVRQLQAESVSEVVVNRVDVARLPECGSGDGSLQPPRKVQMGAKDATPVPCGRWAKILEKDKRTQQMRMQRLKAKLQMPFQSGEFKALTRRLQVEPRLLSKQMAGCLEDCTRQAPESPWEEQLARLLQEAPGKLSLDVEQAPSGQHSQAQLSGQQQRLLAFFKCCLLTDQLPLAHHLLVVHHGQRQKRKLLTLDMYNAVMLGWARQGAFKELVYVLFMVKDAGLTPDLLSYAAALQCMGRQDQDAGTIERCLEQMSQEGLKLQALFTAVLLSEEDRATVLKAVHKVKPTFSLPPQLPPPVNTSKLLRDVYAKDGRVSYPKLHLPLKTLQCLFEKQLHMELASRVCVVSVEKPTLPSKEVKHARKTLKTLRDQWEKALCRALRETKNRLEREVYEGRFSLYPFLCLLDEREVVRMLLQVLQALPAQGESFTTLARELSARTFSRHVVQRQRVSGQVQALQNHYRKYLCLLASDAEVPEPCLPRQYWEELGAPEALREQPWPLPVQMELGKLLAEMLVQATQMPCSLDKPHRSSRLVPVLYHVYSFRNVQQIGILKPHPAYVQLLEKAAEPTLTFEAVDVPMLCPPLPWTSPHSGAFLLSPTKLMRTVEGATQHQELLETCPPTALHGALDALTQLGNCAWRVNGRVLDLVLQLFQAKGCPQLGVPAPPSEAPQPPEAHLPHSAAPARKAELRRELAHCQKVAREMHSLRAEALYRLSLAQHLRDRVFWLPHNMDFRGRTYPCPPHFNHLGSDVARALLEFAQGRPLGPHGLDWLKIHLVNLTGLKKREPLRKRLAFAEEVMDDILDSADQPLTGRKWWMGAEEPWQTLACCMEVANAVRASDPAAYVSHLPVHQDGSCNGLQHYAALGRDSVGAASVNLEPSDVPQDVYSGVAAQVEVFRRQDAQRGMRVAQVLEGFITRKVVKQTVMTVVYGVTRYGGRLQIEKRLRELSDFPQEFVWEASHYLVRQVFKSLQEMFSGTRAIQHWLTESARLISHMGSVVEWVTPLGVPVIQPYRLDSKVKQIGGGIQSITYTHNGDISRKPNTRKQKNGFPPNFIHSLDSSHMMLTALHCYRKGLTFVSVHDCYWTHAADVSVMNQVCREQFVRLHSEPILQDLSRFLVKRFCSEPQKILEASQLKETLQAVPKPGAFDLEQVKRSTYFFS
UniProt Q14781, sequence (whole entry, looked up): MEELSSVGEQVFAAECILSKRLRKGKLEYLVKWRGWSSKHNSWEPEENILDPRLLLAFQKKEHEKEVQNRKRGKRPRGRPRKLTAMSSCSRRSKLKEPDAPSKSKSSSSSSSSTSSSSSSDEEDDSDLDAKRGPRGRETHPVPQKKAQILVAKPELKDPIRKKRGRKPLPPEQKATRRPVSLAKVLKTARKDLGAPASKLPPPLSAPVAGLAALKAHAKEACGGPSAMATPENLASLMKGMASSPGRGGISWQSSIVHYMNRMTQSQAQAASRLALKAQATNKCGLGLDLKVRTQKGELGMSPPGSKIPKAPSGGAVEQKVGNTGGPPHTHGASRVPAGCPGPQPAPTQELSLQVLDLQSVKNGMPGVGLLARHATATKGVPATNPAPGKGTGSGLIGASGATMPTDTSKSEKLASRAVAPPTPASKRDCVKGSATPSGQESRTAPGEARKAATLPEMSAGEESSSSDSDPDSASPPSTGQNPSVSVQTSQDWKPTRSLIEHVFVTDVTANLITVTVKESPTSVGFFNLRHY
UniProt P30559, sequence (whole entry, looked up): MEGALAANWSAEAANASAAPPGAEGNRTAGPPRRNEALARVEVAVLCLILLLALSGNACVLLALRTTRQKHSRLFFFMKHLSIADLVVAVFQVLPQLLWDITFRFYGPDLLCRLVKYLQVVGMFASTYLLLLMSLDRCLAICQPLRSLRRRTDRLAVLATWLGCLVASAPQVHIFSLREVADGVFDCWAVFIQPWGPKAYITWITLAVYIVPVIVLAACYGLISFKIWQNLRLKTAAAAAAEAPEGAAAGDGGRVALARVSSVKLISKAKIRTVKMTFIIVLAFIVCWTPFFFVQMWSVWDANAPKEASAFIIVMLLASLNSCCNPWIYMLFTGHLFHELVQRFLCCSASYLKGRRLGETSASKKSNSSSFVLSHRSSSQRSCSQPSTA
UniProt P21397, sequence (whole entry, looked up): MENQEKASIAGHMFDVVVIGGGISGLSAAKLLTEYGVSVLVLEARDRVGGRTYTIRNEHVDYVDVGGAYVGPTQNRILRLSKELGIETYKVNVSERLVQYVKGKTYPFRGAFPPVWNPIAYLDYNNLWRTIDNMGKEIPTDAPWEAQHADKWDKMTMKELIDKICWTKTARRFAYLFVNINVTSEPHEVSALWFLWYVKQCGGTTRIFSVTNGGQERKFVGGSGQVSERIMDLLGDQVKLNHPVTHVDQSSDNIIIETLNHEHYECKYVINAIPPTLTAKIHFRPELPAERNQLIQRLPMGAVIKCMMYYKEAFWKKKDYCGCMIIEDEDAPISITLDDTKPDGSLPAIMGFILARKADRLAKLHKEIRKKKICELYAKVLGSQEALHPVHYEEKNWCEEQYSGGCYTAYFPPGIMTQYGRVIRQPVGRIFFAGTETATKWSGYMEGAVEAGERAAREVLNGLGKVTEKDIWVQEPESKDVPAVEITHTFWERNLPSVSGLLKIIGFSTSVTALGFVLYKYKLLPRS
UniProt Q13946, sequence (whole entry, looked up): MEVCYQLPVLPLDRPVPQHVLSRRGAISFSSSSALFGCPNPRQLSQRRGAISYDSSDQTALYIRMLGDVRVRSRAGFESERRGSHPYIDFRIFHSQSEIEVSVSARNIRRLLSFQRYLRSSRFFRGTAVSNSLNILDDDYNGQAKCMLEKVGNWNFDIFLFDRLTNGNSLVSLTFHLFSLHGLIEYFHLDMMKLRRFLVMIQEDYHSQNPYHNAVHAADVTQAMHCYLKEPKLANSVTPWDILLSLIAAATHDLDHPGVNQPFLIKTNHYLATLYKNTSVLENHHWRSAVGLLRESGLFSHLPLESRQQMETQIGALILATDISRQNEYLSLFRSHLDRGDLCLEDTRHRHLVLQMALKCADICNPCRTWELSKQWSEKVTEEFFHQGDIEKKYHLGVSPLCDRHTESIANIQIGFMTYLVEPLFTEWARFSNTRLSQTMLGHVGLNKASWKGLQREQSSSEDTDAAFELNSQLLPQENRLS
UniProt P37136, sequence (whole entry, looked up): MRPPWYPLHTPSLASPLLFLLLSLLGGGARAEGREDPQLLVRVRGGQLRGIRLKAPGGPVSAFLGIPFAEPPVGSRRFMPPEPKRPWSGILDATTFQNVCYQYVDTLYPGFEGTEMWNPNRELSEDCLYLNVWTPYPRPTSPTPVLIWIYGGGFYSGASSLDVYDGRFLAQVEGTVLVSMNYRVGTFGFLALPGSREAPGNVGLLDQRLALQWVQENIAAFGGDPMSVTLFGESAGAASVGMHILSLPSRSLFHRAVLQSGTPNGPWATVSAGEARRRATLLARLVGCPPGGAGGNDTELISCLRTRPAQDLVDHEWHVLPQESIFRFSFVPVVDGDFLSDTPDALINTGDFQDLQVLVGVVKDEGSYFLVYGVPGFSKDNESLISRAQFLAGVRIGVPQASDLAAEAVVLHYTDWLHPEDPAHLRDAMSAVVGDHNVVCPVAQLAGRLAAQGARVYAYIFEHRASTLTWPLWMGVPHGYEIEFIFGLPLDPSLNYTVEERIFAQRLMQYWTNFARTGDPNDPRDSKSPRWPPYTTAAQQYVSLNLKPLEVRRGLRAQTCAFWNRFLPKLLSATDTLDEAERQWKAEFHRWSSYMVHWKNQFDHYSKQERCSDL
UniProt P40261, sequence (whole entry, looked up): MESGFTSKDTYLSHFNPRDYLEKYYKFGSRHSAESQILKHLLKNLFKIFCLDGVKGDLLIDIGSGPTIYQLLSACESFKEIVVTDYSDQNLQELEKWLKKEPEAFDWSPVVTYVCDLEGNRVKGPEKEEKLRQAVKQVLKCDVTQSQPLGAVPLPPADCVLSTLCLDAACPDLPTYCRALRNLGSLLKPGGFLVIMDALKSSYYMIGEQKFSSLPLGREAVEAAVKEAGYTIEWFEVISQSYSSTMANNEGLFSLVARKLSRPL
UniProt P32300, sequence (whole entry, looked up): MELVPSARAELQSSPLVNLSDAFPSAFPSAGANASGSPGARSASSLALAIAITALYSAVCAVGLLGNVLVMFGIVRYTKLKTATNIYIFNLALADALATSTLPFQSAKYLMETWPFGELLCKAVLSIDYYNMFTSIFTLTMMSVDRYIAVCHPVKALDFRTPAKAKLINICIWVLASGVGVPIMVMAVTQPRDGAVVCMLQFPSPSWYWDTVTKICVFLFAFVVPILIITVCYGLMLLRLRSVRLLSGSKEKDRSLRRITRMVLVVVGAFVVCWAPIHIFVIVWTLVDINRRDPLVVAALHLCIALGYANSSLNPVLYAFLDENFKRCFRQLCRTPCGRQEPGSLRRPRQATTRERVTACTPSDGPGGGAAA
UniProt P0A6M2, sequence (whole entry, looked up): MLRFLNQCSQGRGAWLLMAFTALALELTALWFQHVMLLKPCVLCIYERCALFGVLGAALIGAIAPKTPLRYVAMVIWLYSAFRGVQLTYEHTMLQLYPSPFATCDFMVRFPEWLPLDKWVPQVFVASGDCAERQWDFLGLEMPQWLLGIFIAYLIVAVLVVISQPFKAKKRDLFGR

For Cc1cc(C2=CCN(CC3OCCO3)CC2)cc([N+](=O)[O-])c1N, the Emax was 12.1 ± 2.36% (HTR2B (Homo sapiens, UniProt P41595); calcium mobilisation, agonist; reference: 5-HT).
For CCN(Cc1ccccc1)C(=O)CCc1nc(CN2CCN(C(=O)Cc3ccc(OC)c(OC)c3)CC2)no1, “V1/2 of inactivation” read -94.5 ± 9.11 mV (Sodium channel protein type 11 subunit alpha (Scn11a, Rattus norvegicus, UniProt O88457); whole-cell patch clamp; rat DRG neurons; 300 nM).
For CN1C(CCCc2ccccc2)CCC1CCCc1ccccc1 (stereo not drawn), the maximal inhibition was 100% (Slc18a2 (Rattus norvegicus, UniProt Q01827); dopamine uptake; rat striatal synaptic vesicles; with: [3H]dopamine).
CN(C)C(=O)C(NC(=O)c1ccccc1-c1ccc(C(F)(F)F)cc1)c1cccc(C(F)(F)F)c1 (stereo not drawn) — result for “dissociation rate constant”: 0.000567 s⁻¹ (NKG2-D type II integral membrane protein (KLRK1, Homo sapiens, UniProt P26718); surface plasmon resonance).
For CC[C@H](C)[C@H](NC(=O)[C@H](Cc1c[nH]cn1)NC(=O)[C@H](CCCCNC(=O)[C@@H](NC(=O)[C@H](CCCCN)NC(=O)[C@H](Cc1ccccc1)NC(=O)[C@H](CCCCNC(=O)[C@H](CC(C)C)NC(=O)[C@@H]1CCCN1C(=O)[C@H](CCCCN)NC(=O)CCS[C@@H]1O[C@H](CO)[C@H](O)[C@H](O)[C@H]1O)NC(=O)[C@H](CC(C)C)NC(=O)[C@@H]1CCCN1C(=O)[C@H](CCCCN)NC(=O)CCS[C@@H]1O[C@H](CO)[C@H](O)[C@H](O)[C@H]1O)[C@@H](C)CC)NC(=O)[C@@H](NC(=O)[C@H](CCCCN)NC(=O)[C@H](Cc1ccccc1)NC(=O)[C@H](CCCCNC(=O)[C@H](CC(C)C)NC(=O)[C@@H]1CCCN1C(=O)[C@H](CCCCN)NC(=O)CCS[C@@H]1O[C@H](CO)[C@H](O)[C@H](O)[C@H]1O)NC(=O)[C@H](CC(C)C)NC(=O)[C@@H]1CCCN1C(=O)[C@H](CCCCN)NC(=O)CCS[C@@H]1O[C@H](CO)[C@H](O)[C@H](O)[C@H]1O)[C@@H](C)CC)C(N)=O, “relative potency per galactoside” read 230 (lecA; binding, isothermal titration calorimetry; divided by galactoside copies; reference: monovalent galactoside KD over ligand KD).
COc1ccc(-c2coc3cc(OCCN4CCCCC4)ccc3c2=O)cc1: “binding free energy” -9 kcal/mol (Ache (Rattus norvegicus, UniProt P37136); inhibitor, Ellman method; rat).
NC(=S)N/N=C/c1cccc(OCc2ccccc2)c1 has a remaining activity of 10% (MAOA (Homo sapiens, UniProt P21397); enzyme activity, inhibitor, absorbance; 10 µM).
CC1=C(C)C(=O)N(Cc2ccc(F)cc2)C1=O — result for “STD NMR signal”: 7.4% (APP amyloid-beta 1-40 oligomers; binding, STD NMR; highest STD).
Cc1cc([C@H](NC(=O)c2cnccc2-c2ccc(C(F)(F)F)cc2)C(=O)N(C)C)cc(C(F)(F)F)c1 gave a maximum inhibition of 102 ± 30.6% (KLRK1 with MICA; ligand binding, inhibitor, TR-FRET; HEK293 expressing NKG2D and DAP10; with: MICA-Alexa647; reference: positive control).
N[C@@H](Cc1ccc(C(=O)NCCc2ccc3ccccc3c2)cc1)C(=O)N1Cc2ccccc2C[C@H]1C(=O)N[C@@H](Cc1ccccc1)C(=O)N[C@@H](Cc1ccccc1)C(=O)O has a relative potency of 2 to 4 fold (Oprd1 (Mus musculus, UniProt P32300); smooth muscle contraction, agonist; mouse vas deferens; reference: DPDPE).
The Emax of CN(C)[C@H](CNC(=O)/C=C/c1cccc2ccccc12)Cc1ccc(O)cc1 is reported as 67 to 89% (Mu-type opioid receptor, with Gi/o/z proteins (OPRM1, Homo sapiens, UniProt P35372); receptor activation, agonist).
CCOC(=O)/C=C/[C@H](C[C@@H]1CCNC1=O)NC(=O)[C@H](Cc1ccccc1)NC(=O)[C@H](COC(C)(C)C)NC(=O)OCc1ccccc1: “FLuc reporter expression” “no effect” (Genome polyprotein, 3C protease (Human hepatitis A virus genotype IB, UniProt P08617); protease activity, cell-based reporter; hepatitis A virus).
Cn1cc(-c2cccc(CN3CCC4(CC3)COc3c4ccc4c3CN([C@H]3CCC(=O)NC3=O)C4=O)c2)cn1 has a Dmax of < 20% (CSNK1A1 (Homo sapiens, UniProt P48729); degrader, HiBiT; HEK293; 6 h).
O=[N+]([O-])c1ccc(OP(=O)(O)O)cc1: “relative catalytic efficiency” 12000 (Alkaline phosphatase PafA (pafA, Elizabethkingia meningoseptica, UniProt Q9KJX5, K162A); Chryseobacterium meningosepticum; pH 8.0; reference: wild type over mutant kcat/KM).
Nc1nc(Cl)nc2c1ncn2Cc1cc(OCC(F)F)cc(OC(F)F)c1 gave a selectivity ratio of 441 fold (PDE7A (Homo sapiens, UniProt Q13946); reference: PDE8A1 IC50 over PDE7A1 IC50).
The activation of CCCCCc1cn(-c2ccc(C(=O)N[C@H]3CCOC3=O)cc2)nn1 is reported as 0% (lasR; reporter gene, agonist; Escherichia coli DH5α pJN105L/pSC11; 10 µM; reference: OdDHL 100 µM).
CCCCC/C=C\C/C=C\C/C=C\C/C=C\CCCC(=O)NCCc1ccc(O)c(O)c1 — result for maximal conductance: “no effect” (Voltage-gated potassium channel, KQT; KCNQ2(Kv7.2)/KCNQ3(Kv7.3) (KCNQ3/KCNQ2, Homo sapiens, UniProt O43525+O43526); two-electrode voltage clamp; Xenopus oocytes; 10 and 100 µM).
For O=C(CC(c1ccc(O)cc1)c1cccc(O)c1)N1CCCCC1 (stereo not drawn), “STD NMR signal” read 15.5% (APP amyloid-beta 1-40 oligomers; binding, STD NMR; highest STD).
With C[C@@]1(O)CC[C@H]2[C@H](CC[C@@H]3[C@@H]2CC[C@]2(C)[C@@H](C(=O)Cn4cccn4)CC[C@@H]32)C1 the PKA activation was 95.5 ± 9.52% (Membrane progesterone receptor epsilon (Paqr9, Mus musculus, UniProt Q6TCG2); pPKA/PKA immunoblot; MDA-MB-231 expressing Paqr9-GFP; 10 nM, 20 min; reference: control).
For O=c1c(Cl)c(Cl)cnn1Cc1ccccc1, the MIC was 5.7 µM (≈ 1.45 µg/mL) (Disulfide bond formation protein B (Escherichia coli, UniProt P0A6M2); DsbB inhibition reporter; Escherichia coli, agar; calculated, likely underestimated).
CCC(=O)C(NC(=O)c1ccccc1-c1ccc(C(F)(F)F)cc1)c1cccc(C(F)(F)F)c1 (stereo not drawn) gave a maximum inhibition of 46% (KLRK1 with MICA; ligand binding, inhibitor, TR-FRET; HEK293 expressing NKG2D and DAP10; with: MICA-Alexa647; reference: positive control).
For C[C@H](NC(=O)[C@H](Cc1ccccc1)NC(=O)c1ccc(Br)cc1)C(=O)N[C@H](C(=O)N[C@@H](CCCC[N+](C)(C)C)C(=O)N[C@@H](CO)C(N)=O)C1CCCC1, the selectivity ratio was 2.1 fold (Chromobox protein homolog 2 (Homo sapiens, UniProt Q14781); competitive fluorescence polarization; reference: Cbx7 over Chromobox protein homolog 2).
C[C@]1(COC(=O)c2ccc(O)c(O)c2)[C@H](C(=O)O)N2C(=O)/C(=C/c3ccccn3)[C@H]2S1(=O)=O has a kinact/KI of 2.9e+06 M⁻¹ s⁻¹ (Beta-lactamase (ampC, Pseudomonas aeruginosa, UniProt P24735); enzyme activity, inhibitor, absorbance).
The MIC of CC[C@H](C)[C@H](NC(=O)[C@H](Cc1c[nH]cn1)NC(=O)[C@H](CCCCNC(=O)[C@@H](NC(=O)[C@H](CCCCN)NC(=O)[C@H](Cc1ccccc1)NC(=O)[C@H](CCCCNC(=O)[C@H](CC(C)C)NC(=O)[C@@H]1CCCN1C(=O)[C@H](CCCCN)NC(=O)CCS[C@@H]1O[C@H](CO)[C@H](O)[C@H](O)[C@H]1O)NC(=O)[C@H](CC(C)C)NC(=O)[C@@H]1CCCN1C(=O)[C@H](CCCCN)NC(=O)CCS[C@@H]1O[C@H](CO)[C@H](O)[C@H](O)[C@H]1O)[C@@H](C)CC)NC(=O)[C@@H](NC(=O)[C@H](CCCCN)NC(=O)[C@H](Cc1ccccc1)NC(=O)[C@H](CCCCNC(=O)[C@H](CC(C)C)NC(=O)[C@@H]1CCCN1C(=O)[C@H](CCCCN)NC(=O)CCS[C@@H]1O[C@H](CO)[C@H](O)[C@H](O)[C@H]1O)NC(=O)[C@H](CC(C)C)NC(=O)[C@@H]1CCCN1C(=O)[C@H](CCCCN)NC(=O)CCS[C@@H]1O[C@H](CO)[C@H](O)[C@H](O)[C@H]1O)[C@@H](C)CC)C(N)=O is reported as 125 µM (≈ 473 µg/mL) (lecA; hemagglutination, inhibitor; rabbit erythrocytes; 30 min, 4 °C).
For CC[C@H](C)[C@@H]1NC(=O)[C@H](Cc2ccc(O)cc2)NC(=O)[C@@H](N)CSSC[C@@H](C(=O)N2CCC[C@H]2C(=O)N[C@@H](CC(C)C)C(=O)NCC(N)=O)NC(=O)[C@H](CC(N)=O)NC(=O)[C@H](CCC(N)=O)NC1=O, the Emax was 5060 RFU (Oxytocin receptor (OXTR, Homo sapiens, UniProt P30559); membrane hyperpolarisation; CHO cells).
For CC(C)C[C@H](NC=O)C(=O)N[C@@H](C)C(=O)N[C@@H](C)C(=O)N[C@@H](CC(=O)O)C(=O)N[C@@H](CC(C)C)C(=O)N[C@@H](CC(C)C)C(=O)N[C@@H](C)C(=O)N[C@@H](C)C(=O)N[C@@H](CC(C)C)C(=O)NCC(=O)N[C@@H](CC(=O)O)C(=O)N[C@@H](CC(C)C)C(=O)N[C@@H](C)C(=O)N[C@@H](CCCCN)C(=O)N[C@@H](Cc1c[nH]c2ccccc12)C(=O)N[C@@H](CC(C)C)C(=O)N[C@@H](CC(C)C)C(=O)N[C@@H](CC(=O)O)C(=O)N[C@@H](C)C(=O)N[C@@H](CC(C)C)C(=O)N[C@@H](C)C(=O)N[C@@H](CCCCN)C(=O)N[C@@H](C)C(=O)N[C@@H](C)C(=O)N[C@@H](CCCCN)C(=O)N[C@@H](CCCCN)C(=O)O (racemic), “binding free energy” read -7.4 kcal/mol (POPC membrane; membrane binding, stopped-flow FRET; mole fraction units, room temperature).
O[C@@H]1[C@@H](O)[C@H](O[C@@H]2OC[C@@H](O)[C@H](O)[C@H]2O)C[C@H]2N[C@@H]12 has a kinact of 0.00767 s⁻¹ (endo-1,4-beta-xylanase (Aspergillus aculeatus, UniProt A0A1L9WG58); covalent inhibitor; pH 5.0, with: 4MU-β-D-xylobioside).
Under “Km of SAM”, CC[C@H](C)[C@@H]1NC(=O)[C@H](CC(C)C)NC(=O)[C@H](C)NC(=O)[C@H](CCCNC(=N)N)NC(=O)[C@H](CC(C)C)NC(=O)[C@H]([C@@H](C)O)NC(=O)[C@H](CCCNC(=N)N)NC(=O)[C@@H]2CCCN2C(=O)[C@H](Cc2c[nH]cn2)NC(=O)[C@H](CC(C)C)NC(=O)[C@H]([C@@H](C)CC)NC(=O)[C@H]([C@@H](C)CC)NC(=O)[C@H](Cc2ccccc2)NC(=O)[C@H](Cc2ccc(O)cc2)NC(=O)CSC[C@@H](C(=O)NCC(N)=O)NC(=O)[C@H]([C@@H](C)CC)NC(=O)[C@H](C(C)C)NC1=O is recorded as “no effect” (NNMT (Homo sapiens, UniProt P40261); inhibitor; increasing inhibitor concentration, with: nicotinamide 200 µM).
CCCCCCc1cn(-c2ccc(C(=O)N[C@H]3CCOC3=O)cc2)nn1 gave an activation of 0% (lasR; reporter gene, agonist; Escherichia coli DH5α pJN105L/pSC11; 10 µM; reference: OdDHL 100 µM).
N#C[C@@]1(c2ccc3c(N)ncnn23)O[C@H](COP(=O)(O)OP(=O)(O)OP(=O)(O)O)[C@@H](O)[C@H]1O: “single nucleotide incorporation rate” 5.8% (POLRMT (Homo sapiens, UniProt O00411); substrate; 500 µM; reference: natural NTP).

Excerpt of the above:
Cc1cc([C@H](NC(=O)c2cnccc2-c2ccc(C(F)(F)F)cc2)C(=O)N(C)C)cc(C(F)(F)F)c1 gave a maximum inhibition of 102 ± 30.6% (KLRK1 with MICA; ligand binding, inhibitor, TR-FRET; HEK293 expressing NKG2D and DAP10; with: MICA-Alexa647; reference: positive control).
N[C@@H](Cc1ccc(C(=O)NCCc2ccc3ccccc3c2)cc1)C(=O)N1Cc2ccccc2C[C@H]1C(=O)N[C@@H](Cc1ccccc1)C(=O)N[C@@H](Cc1ccccc1)C(=O)O has a relative potency of 2 to 4 fold (Oprd1 (Mus musculus, UniProt P32300); smooth muscle contraction, agonist; mouse vas deferens; reference: DPDPE).
The Emax of CN(C)[C@H](CNC(=O)/C=C/c1cccc2ccccc12)Cc1ccc(O)cc1 is reported as 67 to 89% (Mu-type opioid receptor, with Gi/o/z proteins (OPRM1, Homo sapiens, UniProt P35372); receptor activation, agonist).
